Experimental data gathered from unrelated publications.
Parts stem from different laboratories: compare values within a part only. Changes are numbered by the printed parent chain. Converted amounts (≈) assume the structure as drawn.
Chain of UniProt Q9BQI3 (whole entry, looked up): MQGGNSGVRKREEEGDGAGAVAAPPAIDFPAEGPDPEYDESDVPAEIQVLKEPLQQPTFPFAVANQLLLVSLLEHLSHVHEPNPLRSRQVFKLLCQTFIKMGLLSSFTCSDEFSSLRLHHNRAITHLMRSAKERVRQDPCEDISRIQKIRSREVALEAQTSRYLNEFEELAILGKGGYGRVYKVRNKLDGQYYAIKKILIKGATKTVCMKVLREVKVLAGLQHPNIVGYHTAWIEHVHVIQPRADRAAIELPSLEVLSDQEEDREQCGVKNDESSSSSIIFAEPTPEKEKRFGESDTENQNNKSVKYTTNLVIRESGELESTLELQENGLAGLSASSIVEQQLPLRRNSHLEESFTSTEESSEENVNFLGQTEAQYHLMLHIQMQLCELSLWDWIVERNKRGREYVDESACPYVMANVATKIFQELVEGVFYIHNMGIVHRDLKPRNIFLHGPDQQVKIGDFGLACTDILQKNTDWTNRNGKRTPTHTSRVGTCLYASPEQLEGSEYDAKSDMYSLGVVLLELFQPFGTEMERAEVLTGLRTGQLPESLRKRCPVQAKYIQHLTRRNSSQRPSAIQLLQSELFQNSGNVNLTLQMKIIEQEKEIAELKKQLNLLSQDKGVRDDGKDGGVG

Study 1 — technique: cross-linking MS; notes: hits only; measurement: interaction screen
Partner: Histone H2B type 1-C/E/F/G/I (Homo sapiens, UniProt P62807)
PPM1G (Homo sapiens, UniProt O15355): cross-linked
HMGN1 (Homo sapiens, UniProt P05114): cross-linked
RCC1 (Homo sapiens, UniProt P18754): cross-linked
H1-4 (Homo sapiens, UniProt P10412): cross-linked
H2AC7 (Homo sapiens, UniProt P20671): cross-linked
H2AX (Homo sapiens, UniProt P16104): cross-linked

Study 2 — technique: aptamer microarray, sandwich; form: DNA with 2'F-ANA; medium: in vitro; tested at: 200 nM; added: Cy3 exosite-II aptamer, 400 nM; reading: higher = stronger binding; measurement: mean fluorescence intensity; sequence: GGTTGGTGTGGTTGG
Target: Prothrombin, mature alpha-thrombin (F2, Homo sapiens, UniProt P00734)
Notes: whole 15-mer aptamer, many near background
2'F-ANA at 1 2 8 10 11 13: 46.5 a.u.
2'F-ANA at 1 2 4 5 6 7 10 11 12 14 15: 49.5 a.u.
2'F-ANA at 1 2 3 7 8 9 10 11: 77.7 a.u.
2'F-ANA at 1 5 9 11 12: 90.7 a.u.
2'F-ANA at 1 2 6 7 8 11 13 14: 72 a.u.
2'F-ANA at 1 4 5 6 8 9 12 13: 70.6 a.u.
2'F-ANA at 2 4 7 9 11 14: 94.1 a.u.
2'F-ANA at 1 2 4 5 9 11 12 14 15: 44.8 a.u.

Study 3 — organism: Staphylococcus aureus; strain: USA300; measurement: MIC
SMILES: CCCCC[C@@H](O)CC(=O)N[C@@H]1C(=O)N[C@H](CCCNC(=N)N)C(=O)N[C@@H](CO)C(=O)NCC(=O)N(C)[C@H](Cc2ccccc2)C(=O)N[C@@H](CC(C)C)C(=O)N[C@H](CCCNC(=N)N)C(=O)N[C@@H](CO)C(=O)N[C@H]([C@H](C)O)C(=O)N[C@H](Cc2c[nH]c3ccccc23)C(=O)N[C@@H]([C@@H](C)CC)C(=O)NCC(=O)O[C@@H]1C
added: ubiquinone 0 µg/mL: 8 µg/mL (≈ 5.27 µM)
added: menaquinone 4 µg/mL: 32 µg/mL (≈ 21.1 µM)
added: ubiquinone 4 µg/mL: 8 µg/mL (≈ 5.27 µM)
added: menaquinone 2 µg/mL: 32 µg/mL (≈ 21.1 µM)

Study 4 — target: inorganic phosphate, free oxyanion; technique: microfluidic competitive inhibition; medium: in vitro, cell-free expressed; tested at: not given; reading: lower = stronger binding; measurement: phosphate dissociation constant
Notes: derived from inhibition constants, unchanged parent 615000 nM
Starting sequence: PafA, mature enzyme, eGFP fusion (Elizabethkingia meningoseptica, UniProt Q9KJX5); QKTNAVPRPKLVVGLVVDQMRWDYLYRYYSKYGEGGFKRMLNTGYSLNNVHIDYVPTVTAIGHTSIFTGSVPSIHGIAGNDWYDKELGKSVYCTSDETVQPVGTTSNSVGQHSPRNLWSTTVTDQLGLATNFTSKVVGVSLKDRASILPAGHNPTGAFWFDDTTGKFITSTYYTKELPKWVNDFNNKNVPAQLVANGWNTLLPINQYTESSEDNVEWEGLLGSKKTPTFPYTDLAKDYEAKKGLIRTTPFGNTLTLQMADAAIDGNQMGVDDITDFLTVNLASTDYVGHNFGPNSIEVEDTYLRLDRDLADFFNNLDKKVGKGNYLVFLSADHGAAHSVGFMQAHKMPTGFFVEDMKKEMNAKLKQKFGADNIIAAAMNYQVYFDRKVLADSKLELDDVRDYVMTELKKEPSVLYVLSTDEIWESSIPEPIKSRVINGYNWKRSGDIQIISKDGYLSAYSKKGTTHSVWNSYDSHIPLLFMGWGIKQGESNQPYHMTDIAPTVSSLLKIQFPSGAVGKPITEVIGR
Y402V: 649 µM
N252V: 455 µM
N153V: 543 µM
T57V: 251 µM
S474V: 243 µM
L221G: 211 µM
M378G: 665 µM
R304V: 591 µM
I273V: 617 µM
G156A: 518 µM
T130G: 497 µM
R246G: 655 µM
K142V: 2320 µM
I520V: 599 µM
S505V: 632 µM
V102A: 603 µM
I427V: 678 µM
K89G: 774 µM
F351G: 553 µM
E299G: 481 µM
D311G: 586 µM
M258V: 660 µM
I204V: 722 µM
K175V: 659 µM
L25V: 572 µM

Study 5 — technique: RNAcompete; form: RNA; medium: in vitro; tested at: 20 nM; notes: 7-mer, probes averaged, single round; baseline: mean of 7-mers; reading: higher = stronger binding; measurement: 7-mer Z-score
Target: PABPC1L2, full length, GST fusion (mouse, UniProt A0ABA7IW68)
Construct (chain): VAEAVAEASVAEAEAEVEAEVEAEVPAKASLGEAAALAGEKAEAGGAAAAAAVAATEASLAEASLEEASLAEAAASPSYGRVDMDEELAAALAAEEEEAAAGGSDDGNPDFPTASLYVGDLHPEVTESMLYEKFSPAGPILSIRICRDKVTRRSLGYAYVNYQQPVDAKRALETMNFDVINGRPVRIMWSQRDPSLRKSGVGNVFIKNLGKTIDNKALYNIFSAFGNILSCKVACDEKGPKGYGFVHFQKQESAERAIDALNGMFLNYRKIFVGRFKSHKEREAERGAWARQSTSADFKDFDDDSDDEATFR
ACGAGAC: 0.162
GACUGCG: -0.0156
UGUGUAA: -0.209
UUGAAGA: -0.0826
UCUACCU: -0.278
CGUCUUC: -0.472
CGCAGUC: -0.238
CUUGCAU: -0.322

Mixed results
Cn1cncc1[C@](O)(COc1ccc(C#N)cc1-c1ccc(OC(F)(F)F)cc1)c1ccc(C#N)cc1
remaining binding (Eukaryotic translation initiation factor 2-alpha kinase 1 (EIF2AK1, Homo sapiens, UniProt Q9BQI3); cell-free assay, competition with immobilised ligand; 1 µM): 100%

Excerpt of the above (study 5):
GACUGCG: -0.0156
CGCAGUC: -0.238
UGUGUAA: -0.209
CGUCUUC: -0.472
